{"data": "Experimental data pooled from the literature", "note": "Lines come from different studies, so protocols differ. “And” joins repeats or separate records; there may be more than shown. ± marks the error that the study gave.", "sequence of UniProt P06276 (whole entry, looked up)": "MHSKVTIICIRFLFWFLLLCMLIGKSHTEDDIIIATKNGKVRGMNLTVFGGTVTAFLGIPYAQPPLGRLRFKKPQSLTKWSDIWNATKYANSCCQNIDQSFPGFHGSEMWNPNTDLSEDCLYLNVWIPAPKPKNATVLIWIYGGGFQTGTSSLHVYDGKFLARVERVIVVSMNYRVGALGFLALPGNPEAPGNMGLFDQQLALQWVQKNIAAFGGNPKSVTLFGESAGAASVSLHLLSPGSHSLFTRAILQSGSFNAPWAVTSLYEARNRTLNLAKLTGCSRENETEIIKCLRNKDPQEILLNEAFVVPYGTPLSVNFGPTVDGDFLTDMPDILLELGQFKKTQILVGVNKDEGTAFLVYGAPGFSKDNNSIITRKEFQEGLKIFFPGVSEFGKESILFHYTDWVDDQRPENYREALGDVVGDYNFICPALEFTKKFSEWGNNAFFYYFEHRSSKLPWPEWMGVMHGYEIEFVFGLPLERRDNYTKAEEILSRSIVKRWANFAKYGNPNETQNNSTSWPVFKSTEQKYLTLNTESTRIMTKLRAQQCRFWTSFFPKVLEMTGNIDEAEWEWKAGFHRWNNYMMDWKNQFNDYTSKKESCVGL"}
{"SMILES": "COc1ccc(-n2nc(C(C)=O)s/c2=N\\N=C(/C)c2ccc(NC(C)=O)cc2)cc1", "target or system": "HepG2", "setting": "0.156 µM", "quantity": "viability", "value": "37.6%"}
{"SMILES": "O=C(CCCN1CC=C(n2c(=O)[nH]c3ccccc32)CC1)c1ccc(F)cc1", "target or system": "Plasmodium falciparum", "system": "HB3", "quantity": "IC50", "value": "2510 nM"}
{"SMILES": "c1ccc(C(NCCNC(c2ccccc2)c2ccccc2)c2ccccc2)cc1", "target or system": "5-HT4 receptor, guinea pig", "assay": "binding", "setting": "10 µM, Eurofins selectivity panel", "quantity": "inhibition", "value": "43%"}
{"SMILES": "C[C@@H]1CC[C@H]2[C@@H](C)C(=O)O[C@@H]3O[C@@]4(C)CC[C@@H]1[C@]32OO4", "target or system": "Plasmodium falciparum", "system": "GB4", "quantity": "IC50", "value": "5 nM"}
{"SMILES": "O=C(Nc1cccc(CN2CCN(C(=O)c3ccccc3)CC2)c1)c1cccs1.O=C(O)C(F)(F)F", "target or system": "Plasmodium falciparum", "assay": "parasite growth, SYBR Green", "setting": "72 h", "how to read": "reference: 3D7-E182D over 3D7", "quantity": "EC50 ratio", "value": 5.9}
{"SMILES": "CNCCC(Oc1ccccc1OC)c1ccccc1 (stereo not shown)", "target or system": "Plasmodium falciparum", "system": "7G8", "quantity": "IC50", "value": "2510 nM"}
{"SMILES": "C[C@@H](O)[C@@H]1NC(=O)[C@H](Cc2ccccc2)NC(=O)[C@@H](Cc2ccccc2)NC(=O)[C@H]([C@@H](C)O)NC(=O)[C@@H](CCCN)NC(=O)[C@H](CCCNC(=N)N)NC(=O)[C@@H](CCCN)NC1=O", "target or system": "Naegleria fowleri", "setting": "trophozoites", "quantity": "IC90", "value": "> 16 µg/mL"}
{"SMILES": "COc1cc(CCC[P+](c2ccccc2)(c2ccccc2)c2ccccc2)c(OC)c2c1OCO2.[I-]", "target or system": "A498", "assay": "SRB", "quantity": "GI50", "value": "-5.85 log M"}
{"SMILES": "COc1ccc(-n2ccnc2SCC(=O)Nc2cc(Cl)ccc2OC)c(OC)c1", "target or system": "Plasmodium falciparum", "assay": "parasite growth, SYBR Green", "setting": "72 h", "how to read": "reference: 3D7-E182D over 3D7", "quantity": "EC50 ratio", "value": 5.2}
{"SMILES": "COc1ccc2c(c1)CN(C(=O)CCN1CCC(Cc3ccccc3)CC1)CCS2", "target or system": "Cholinesterase (BCHE, Homo sapiens, UniProt P06276)", "assay": "inhibitor", "quantity": "IC50", "value": "8620 ± 880 nM"}
{"SMILES": "C=CC/N=c1/scc(-c2ccccc2Br)n1/N=C/c1ccccn1", "target or system": "Gag-Pol polyprotein, integrase (gag-pol, Human immunodeficiency virus 1, UniProt P12497)", "assay": "strand transfer activity, inhibitor", "setting": "wild-type integrase", "quantity": "IC50", "value": "> 100000 nM"}
{"SMILES": "CC[C@]1(O)C[C@H]2CN(CCc3c([nH]c4ccccc34)[C@@](C(=O)OC)(c3cc4c(cc3OC)N(C=O)[C@H]3[C@@](O)(C(=O)OC)[C@H](OC(C)=O)[C@]5(CC)C=CCN6CC[C@]43[C@@H]65)C2)C1", "target or system": "Plasmodium falciparum", "system": "Dd2", "quantity": "IC50", "value": "100 nM"}
{"SMILES": "COc1c(C)c2c(c(O)c1C/C=C(\\C)CCC(=O)O)C(=O)OC2", "target or system": "SK-OV-3", "assay": "cell proliferation", "quantity": "IC50", "value": "794 nM"}
{"SMILES": "O=C(NC1CC1)c1ccc(N2CCOc3ccc(Cl)cc32)s1", "target or system": "Plasmodium falciparum", "assay": "parasite growth, SYBR Green", "system": "3D7 wild type", "setting": "72 h", "quantity": "EC50", "value": "779 ± 370 nM"}
{"SMILES": "CN(C)CCCC1(c2ccc(F)cc2)OCc2cc(C#N)ccc21 (stereo not shown)", "target or system": "Plasmodium falciparum", "system": "3D7", "quantity": "IC50", "value": "10000 nM"}
{"SMILES": "O=C(Nc1cccc(CN2CCN(C(=O)c3cccc(Cl)c3)CC2)c1)c1ccco1", "target or system": "Plasmodium falciparum", "assay": "parasite growth, SYBR Green", "system": "3D7 wild type", "setting": "72 h", "quantity": "EC50", "value": "499 ± 57 nM"}
{"SMILES": "O=C1NC(=O)C(C2C3=C(CCCC3=O)Oc3ccc([N+](=O)[O-])cc32)C(=O)N1 (stereo not shown)", "target or system": "mouse preadipocytes", "assay": "qPCR, item: Pref-1", "setting": "IC20, 14 days, adipogenic induction", "how to read": "reference: untreated cells", "quantity": "mRNA level", "value": "decreased"}
{"SMILES": "CC(C)[C@@H]1NC(=O)[C@@H](Cc2ccccc2)NC(=O)[C@H](Cc2ccccc2)NC(=O)[C@@H]([C@H](C)O)NC(=O)[C@@H](CCCNC(=N)N)NC1=O", "target or system": "Naegleria fowleri", "setting": "trophozoites", "quantity": "IC90", "value": "> 16 µg/mL"}
{"SMILES": "CCCCN(C)CC#Cc1ccc2[nH]c(C)c(Cl)c(=O)c2c1", "target or system": "Plasmodium falciparum", "assay": "parasite growth, SYBR Green", "setting": "72 h", "how to read": "reference: 3D7-E182D over 3D7", "quantity": "EC50 ratio", "value": 2.2}
{"SMILES": "Nc1ncnc2c1ncn2[C@@H]1O[C@@H]2COP(=O)(O)O[C@H]3[C@@H](O)[C@H](n4cnc5c(=O)[nH]cnc54)O[C@@H]3COP(=O)(O)O[C@H]2[C@H]1O", "target or system": "HFF-1", "assay": "RNA sequencing, item: Reactome R-HSA-2022090", "setting": "downregulated pathway", "how to read": "reference: Zika virus alone", "quantity": "pathway fold enrichment", "value": 10.7}
{"SMILES": "C[C@@H](O)[C@@H]1NC(=O)[C@@H](CCCCN)NC(=O)[C@H](CCCN)NC(=O)[C@@H](CCCN)NC(=O)[C@H](CO)NC(=O)[C@H](Cc2c[nH]c3ccccc23)NC(=O)[C@@H](Cc2c[nH]c3ccccc23)NC1=O", "target or system": "Naegleria fowleri", "setting": "trophozoites", "quantity": "IC90", "value": "> 16 µg/mL"}
{"SMILES": "O=C(O)C[C@H](NC(=O)[C@H](CC(=O)O)NC(=O)[C@H](CC(=O)O)NC(=O)[C@H](CC(=O)O)NC(=O)[C@H](CC(=O)O)NC(=O)[C@H](CC(=O)O)NC(=O)[C@H](CC(=O)O)NC(=O)[C@H](CC(=O)O)NC(=O)[C@H](CC(=O)O)NC(=O)[C@H](CC(=O)O)NC(=O)[C@H](CC(=O)O)NC(=O)[C@H](CCCCNC(=O)c1ccc(C(=O)NCCOCCOB2BBBBBB3BBBB3B2)cc1)NC(=O)CN1CCN(CC(=O)O)CCN(CC(=O)O)CCN(CC(=O)O)CC1)C(=O)O [gallium-67 labelled]", "system": "ddY mice, male, stomach", "setting": "intravenous, 37 kBq, 10 min", "quantity": "tissue uptake", "value": "0.34 %ID"}
{"SMILES": "COc1ccccc1N1CCN(CCCCNC(=O)c2ccc3ccccc3c2)CC1", "target or system": "Plasmodium falciparum", "system": "GB4", "quantity": "IC50", "value": "10000 nM"}
{"SMILES": "O=C(NC12CC3CC(CC(C3)C1)C2)c1cc(-c2ccc(F)cc2F)c[nH]1", "target or system": "Vero", "setting": "48 h", "quantity": "IC50", "value": "32 µg/mL"}
{"SMILES": "CC[C@H](C)[C@@H]1NC(=O)[C@@H]2CCCN2C(=O)[C@H](CC(C)C)NC(=O)[C@H](CC(C)C)NC(=O)CNC(=O)[C@@H](NC(=O)[C@@H](NC(=O)[C@H](CC(=O)O)NC(=O)CNC(=O)[C@@H](NC(=O)[C@H](C)NC(=O)CNC(=O)[C@H](CCCCN)NC(=O)[C@H](CC(C)C)NC(=O)[C@H](CC(C)C)NC(=O)[C@H](CCCCN)NC(=O)CNC(=O)[C@@H](NC(=O)[C@@H](N)CC(C)C)C(C)C)C(C)C)C(C)C)CSSC[C@@H](C(=O)O)NC1=O", "assay": "RNA-seq, item: Nr4a1", "system": "mouse, traumatic brain injury model, frontal cortex and hippocampus", "setting": "dose not given", "how to read": "reference: TBI alone", "quantity": "log2 fold change", "value": -1.72}
{"SMILES": "C#CCN(C)[C@H](C)Cc1ccccc1", "assay": "footprint test", "system": "MPTP-induced Parkinson's disease mouse model", "setting": "10 mg/kg, trial 3", "quantity": "corridor crossing time", "value": "8.69 s and 3.5 s and 5.04 s and 3.25 s and 6.09 s and 4.89 s and 4.45 s"}
{"SMILES": "OC(c1cc(C(F)(F)F)nc2c(C(F)(F)F)cccc12)C1CCCCN1 (stereo not shown)", "target or system": "Plasmodium falciparum", "system": "Dd2", "quantity": "IC50", "value": "33 nM"}
{"SMILES": "Cc1cc(C)n2c1C=C1C=CC(CCC(=O)Nc3ccc(OCC(=O)N[C@@H]4C(=O)N5[C@@H]4SC(C)(C)[C@@H]5C(=O)[O-])cc3)=[N+]1[B-]2(F)F.[Na+]", "target or system": "PBP1b, Streptococcus pneumoniae", "assay": "inhibitor", "system": "live Streptococcus pneumoniae cells", "quantity": "kinact/Ki", "value": "20300 ± 1200 M⁻¹ s⁻¹"}
{"SMILES": "O=C(Nc1cccc(Cl)c1Cl)Nc1ccnc2ccccc12", "target or system": "Plasmodium falciparum", "assay": "parasite growth, SYBR Green", "system": "3D7 DHODH E182D", "setting": "72 h", "quantity": "EC50", "value": "3480 ± 330 nM"}
{"SMILES": "COc1cc(F)ccc1-c1c[nH]c(C(=O)NC23CC4CC(CC(C4)C2)C3)c1", "target or system": "Vero", "setting": "48 h", "quantity": "IC50", "value": "> 64 µg/mL"}
{"SMILES": "Nc1ccn(C[C@@H](CO)OCP(=O)(O)O)c(=O)n1", "target or system": "Fowlpox virus", "assay": "viral infection", "system": "CEF", "setting": "3.125 µM", "how to read": "reference: untreated", "quantity": "infection", "value": "111% and 108% and 99.4%"}
{"SMILES": "COc1c(CCC[P+](c2ccccc2)(c2ccccc2)c2ccccc2)cc2c(c1OC)OCO2.[I-]", "target or system": "A498", "assay": "SRB", "quantity": "LC50", "value": "-4.83 log M"}
{"SMILES": "O=C1CC[C@@]2(O)[C@H]3Cc4ccc(O)c5c4[C@@]2(CCN3CC2CC2)[C@H]1O5", "target or system": "H+/organic cation antiporter", "assay": "cell uptake", "system": "hCMEC/D3", "quantity": "Vmax", "value": "945 pmol/min/mg protein"}
{"SMILES": "CN(C)CCCN1c2ccccc2Sc2ccccc21", "target or system": "Plasmodium falciparum", "system": "GB4", "quantity": "IC50", "value": "7940 nM"}
{"SMILES": "CC(C)[C@H]1NC(=O)[C@H](CCCNC(=N)N)NC(=O)CNC(=O)[C@@H](Cc2c[nH]c3ccccc23)NC(=O)[C@H](CCCCN)NC(=O)[C@@H](CCCN)NC1=O", "target or system": "Acanthamoeba castellanii", "setting": "trophozoites", "quantity": "IC50", "value": "10.5 µg/mL"}
{"SMILES": "COC(=O)C1=CNC=C(C(=O)OC)C1c1ccc(Cl)c([N+](=O)[O-])c1", "target or system": "Plasmodium falciparum", "assay": "parasite growth, SYBR Green", "system": "3D7 DHODH E182D", "setting": "72 h", "quantity": "EC50", "value": "714 ± 130 nM"}
{"SMILES": "Nc1ncc(-c2nc(N3CCOCC3)nc(N3CCOCC3)n2)c(C(F)F)n1", "target or system": "MeWo", "setting": "72 h", "quantity": "GI50", "value": "240 nM"}
{"note": "A few entries again:"}
{"SMILES": "COc1cc(CCC[P+](c2ccccc2)(c2ccccc2)c2ccccc2)c(OC)c2c1OCO2.[I-]", "target or system": "A498", "assay": "SRB", "quantity": "GI50", "value": "-5.85 log M"}
{"SMILES": "Cc1cc(C)n2c1C=C1C=CC(CCC(=O)Nc3ccc(OCC(=O)N[C@@H]4C(=O)N5[C@@H]4SC(C)(C)[C@@H]5C(=O)[O-])cc3)=[N+]1[B-]2(F)F.[Na+]", "target or system": "PBP1b, Streptococcus pneumoniae", "assay": "inhibitor", "system": "live Streptococcus pneumoniae cells", "quantity": "kinact/Ki", "value": "20300 ± 1200 M⁻¹ s⁻¹"}
{"SMILES": "O=C(Nc1cccc(CN2CCN(C(=O)c3cccc(Cl)c3)CC2)c1)c1ccco1", "target or system": "Plasmodium falciparum", "assay": "parasite growth, SYBR Green", "system": "3D7 wild type", "setting": "72 h", "quantity": "EC50", "value": "499 ± 57 nM"}
{"SMILES": "COc1ccc(-n2nc(C(C)=O)s/c2=N\\N=C(/C)c2ccc(NC(C)=O)cc2)cc1", "target or system": "HepG2", "setting": "0.156 µM", "quantity": "viability", "value": "37.6%"}
